Published values collected from several papers.
Numbered parts are unrelated; each lists some results of a single study.

Sample 1
Target: Interferon regulatory factor 5, full length, phosphomimetic (IRF5, Homo sapiens, UniProt Q13568-2, residues 1-514, S451D/S453D/S456D/S462D)
Technique: protein-binding microarray
Molecule type: double-stranded DNA, one strand shown
Medium: in vitro
Concentration: 940 nM top
Notes: 60-bp whole probe
Together with: salmon DNA 0.4 mg/ml
Relative to: random background probes
Reading: higher = stronger binding
Shared flanks, not repeated: GCCTAGCAC … GTCTTGATTCGCTTGACGCTGCTG
Under “fitted relative affinity”, `GACGGTCTTCTTCTCCTGACGTGCTAG` is recorded as 0.777 z-score.
For `CTAGGTATCGACTATCGGTTAGTGCTA`, “fitted relative affinity” read 5.01 z-score.
For `TCATTTTTCACCTGCACACTGTGCTAG`, “fitted relative affinity” read 1.39 z-score.
`TTAGTTTTCCTTATCCTTTAGTGCTAG`: “fitted relative affinity” 2.8 z-score.
`CTTGCTTTCCAATTCTCTTTGTGCTAG`: “fitted relative affinity” 0.758 z-score.

Sample 2
Target: Protein max, full length (MAX, Homo sapiens, UniProt P61244-2, residues 1-151)
Technique: protein-binding microarray
Molecule type: double-stranded DNA, one strand shown
Medium: in vitro
Concentration: not given
Notes: k-mer, scored over probes, only values ≥0.25
Reading: higher = stronger binding
For `CATGAGGC`, the E-score was 0.396.
`CATGCCAC` gave an E-score of 0.4.
`AAATCACG` has an E-score of 0.375.
For `CATGATTC`, the E-score was 0.264.
The E-score of `ACGGGTGG` is reported as 0.254.

Sample 3
Target: Histone acetyltransferase KAT6A, both winged helices, GST fusion (KAT6A, Homo sapiens, UniProt Q92794, residues 1-181)
Technique: protein binding microarray
Molecule type: double-stranded DNA, one strand shown
Medium: in vitro
Concentration: not given
Notes: 8-mer, flanks averaged, mean of 2 arrays, mostly near background
Relative to: not given
Reading: higher = stronger binding
Target sequence (chain): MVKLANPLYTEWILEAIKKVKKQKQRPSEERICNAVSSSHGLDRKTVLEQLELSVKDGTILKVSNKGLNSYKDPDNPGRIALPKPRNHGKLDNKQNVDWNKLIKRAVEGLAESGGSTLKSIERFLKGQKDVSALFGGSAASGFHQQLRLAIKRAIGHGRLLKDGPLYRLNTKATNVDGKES
The E-score of `CACCCGCC` is reported as 0.192.
With `CGGTTCGA` the E-score was 0.171.
The E-score of `AAGGAGCA` is reported as -0.169.
`AAAAGGAC` gave an E-score of -0.129.
`CCGACATA` has an E-score of 0.0748.
`ACCTTGAC` has an E-score of 0.0138.
For `AGGCTGTG`, the E-score was -0.151.

Mixed results
`PhoQ, residues 284 288 289 292 302 303 SMMNNA` gave a fold induction of 18.5 (PhoP, residues 12 14 15 18 19 AQALL (Escherichia coli, UniProt P23836); Sort-seq, refers to: YFP reporter; E. coli; PhoQ-PhoP variant library, together with: 10 µM Mg2+; relative to: high Mg2+ state, higher = stronger signaling).

Some of these lines once more (sample 2):
For `CATGAGGC`, the E-score was 0.396.
`CATGCCAC` gave an E-score of 0.4.
